Experimental data pooled from the literature.
Compare with care: the assays were run in different laboratories. Several values in a cell are separate wells, animals, samples, runs or records. ± marks the error that the study gave.
TDP1: Tyrosyl-DNA phosphodiesterase 1 (TDP1, Homo sapiens, UniProt Q9NUW8)
UniProt Q9NUW8, sequence (whole entry, looked up): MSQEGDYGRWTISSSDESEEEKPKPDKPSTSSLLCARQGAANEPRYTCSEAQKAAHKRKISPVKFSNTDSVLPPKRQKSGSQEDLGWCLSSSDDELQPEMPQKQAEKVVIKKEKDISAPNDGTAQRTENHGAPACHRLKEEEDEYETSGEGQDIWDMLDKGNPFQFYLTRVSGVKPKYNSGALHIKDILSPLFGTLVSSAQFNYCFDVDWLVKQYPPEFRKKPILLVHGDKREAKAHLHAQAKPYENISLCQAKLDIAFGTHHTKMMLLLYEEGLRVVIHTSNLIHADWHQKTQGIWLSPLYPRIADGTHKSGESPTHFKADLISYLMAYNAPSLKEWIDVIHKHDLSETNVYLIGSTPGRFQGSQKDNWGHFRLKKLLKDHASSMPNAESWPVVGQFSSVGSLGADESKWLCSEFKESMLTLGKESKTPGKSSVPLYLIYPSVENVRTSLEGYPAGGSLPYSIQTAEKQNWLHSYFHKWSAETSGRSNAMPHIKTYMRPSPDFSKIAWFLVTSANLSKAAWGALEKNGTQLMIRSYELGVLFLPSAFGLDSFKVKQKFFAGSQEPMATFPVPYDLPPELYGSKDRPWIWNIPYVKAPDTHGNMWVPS

CS(=O)(=O)c1ccc(C=NOCc2ccc3nc(-c4ccccc4)c(Nc4ccc(C(=O)O)cc4)n3c2)c(Cl)c1 (mixture of isomers)  inhibition (TDP1; enzyme activity, inhibitor; 100 µM, unpurified compound): 49%
Cc1[nH]nc2c1N=C(c1ccccc1Cl)c1cnc(N3CCOCC3)cc1N2  inhibition (phorbol ester binding site, mouse; radioligand binding; 10 µM): -6%
CN(C)CCOc1cc(NC(=O)c2cccc(C(=O)Nc3cc(OCCN(C)C)c4ccccc4n3)n2)nc2ccccc12  ΔTm (c-kit2 G-quadruplex DNA; FRET melting; 1 µM, pH 7.4, with: 60 mM potassium): 14.5 ± 0.7 K
O=C1c2sc(-c3ccc(N4CCC(F)C4)nc3F)nc2CCN1c1cccnc1 (stereo not shown)  exon inclusion (TDP-43 (human); CFTR exon splicing; SH-SY5Y; 0.1 µM, TDP-43-controlled CFTR minigene): 58% and 51.5% and 49.8% and 48%
Cc1cn(CC(=O)N(CCNC(=O)CN(CCNC(=O)CN(CCNC(=O)CN(CCNC(=O)CN(CCNC(=O)CN(CCNC(=O)CN(CCNC(=O)CN(CCN)C(=O)Cn2cnc3c(=O)[nH]c(N)nc32)C(=O)Cn2cnc3c(N)ncnc32)C(=O)Cn2cc(C)c(=O)[nH]c2=O)C(=O)Cn2cnc3c(=O)[nH]c(N)nc32)C(=O)Cn2cc(C)c(=O)[nH]c2=O)C(=O)Cn2cnc3c(=O)[nH]c(N)nc32)C(=O)Cn2cnc3c(N)ncnc32)CC(=O)NCCN(CC(=O)NCCOCCOCC(N)=O)C(=O)Cn2cnc3c(N)ncnc32)c(=O)[nH]c1=O  ΔTm (mismatched RNA TC; duplex formation, UV melting; baseline: complementary RNA): -15.7 °C
COc1ccc2cc3[n+](cc2c1OCCCOC(=O)c1cscn1)CCc1cc2c(cc1-3)OCO2  inhibition (PCSK9; concentration not given): 51.2%
O=C(CSc1nnc(-c2ccco2)c(-c2ccco2)n1)c1cccs1  IC50 (Uncharacterized protein (Trypanosoma brucei brucei, UniProt Q386Q8); enzyme activity, inhibitor, coupled colorimetric; with: E. coli pyrophosphatase coupling): 85.4 µM
Nc1ncc(-c2cc(-c3cnn(CC(F)(F)F)c3)ncc2F)nc1C(=O)NC1CNCC(F)C1 (stereo not shown)  remaining binding (MLK3; KINOMEscan; 1 µM; baseline: DMSO control): 71%
CC(=O)c1cnc(N)nc1N1CC[C@H]1c1nn2ccc(Cl)c2c(=O)n1-c1ccccc1  binding (PI3Kγ; KiNativ; dog white blood cell lysate; 1 µM): 85.5%
CCC(=O)N(C)c1ccc(Cl)c(Cl)c1  inhibition (Kv potassium channel; radioligand binding; 10 µM): < 10%
O=C(Nc1cc(OCCN2CCCC2)c2ccccc2n1)c1cccc(C(=O)Nc2cc(OCCN3CCCC3)c3ccccc3n2)n1  ΔTm (c-kit2 G-quadruplex DNA; FRET melting; 1 µM, pH 7.4, with: 60 mM potassium): 12.1 ± 0.9 K
COc1cc(Nc2nc(C)cc(-c3cnn4nc(OC)ccc34)n2)cc(C(F)(F)F)c1  remaining binding (JAK1 JH1 catalytic domain, human; KINOMEscan binding; 1000 nM; baseline: control): 100%
O=C(O)c1ccc(Nc2c(-c3ccccc3)nc3ccc(CON=Cc4ccc(-c5ccccc5)cc4)cn23)cc1 (mixture of isomers)  inhibition (TDP1; enzyme activity, inhibitor; 100 µM, unpurified compound): -2.8%
C=CC(=O)N1[C@@H](c2ccc3c(c2)OCO3)c2[nH]c3ccccc3c2C[C@H]1C(=O)N1CCN(C)CC1  relative co-enrichment (human cyclin E1 N112C-3xFLAG:CDK2; co-IP with TMT proteomics, refers to: TUBA1A; concentration not given, Q71U36; baseline: wild type DMSO): 127%
Cn1c(=O)[nH]c(=O)c2c1nc(CN1CCN(c3cccc(Cl)c3)CC1)n2Cc1cccc(Cl)c1  IP1 accumulation increase (PLC-gamma2 human; HEK293-A overexpressing PLC-gamma2; 50 µM, 2 h): 10%
c1ccc(-c2n[nH]cc2-c2ccnc3ccccc23)nc1  log2 fold change (PBS2 (Candida albicans); kinase binding, MIB/MS competition; Candida albicans lysate; 10 µM; baseline: DMSO): -0.19
C=CC(=O)Nc1cccc(Cn2ncc3cnc(Nc4cnn(CCOC)c4)nc32)c1  percent of control (TIE1 human; binding, KINOMEscan; 100 nM; lower = stronger binding): 21%
CNC(=O)C1CCN(c2cc(C)c(F)cc2NC(=O)c2ccc(-c3cc(O)ccc3C)c(C)c2)CC1  percent of control (FLT3 ITD (human); binding, KINOMEscan; 1000 nM): 100%
NCCCn1cc(COc2cc(C(=O)Nc3cc(OCCN)c4ccccc4n3)nc(C(=O)Nc3cc(OCCN)c4ccccc4n3)c2)nn1  ΔTm (c-kit2 G-quadruplex DNA; FRET melting; 1 µM, pH 7.4, with: 60 mM potassium): 7.2 ± 0.4 K
Cc1ccc(-n2cc(CSc3nc4ccccc4n3Cc3cn(-c4ccc(C)cc4)nn3)nn2)cc1  geometric mean inhibition (tubulin; tubulin polymerization, inhibitor; MDA-MB-231; 50, 100, 500 ppm): 2.96%
Cc1nc(N)nc2c1C(=O)N[C@@H](c1ccc(F)cc1-c1cccc(OCCF)n1)C2  blocking (Hsp90; in vitro autoradiography; rat brain slice; 11 kBq/mL, room temperature, with: blocker 10 µM): 97 ± 2%
c1ccc2c(Nc3cc(C4CCC4)[nH]n3)nc(Nc3ccc4nc[nH]c4c3)nc2c1  remaining activity (AMPK human; enzyme activity; 250 nM): 1%

Some of these lines once more:
COc1cc(Nc2nc(C)cc(-c3cnn4nc(OC)ccc34)n2)cc(C(F)(F)F)c1  remaining binding (JAK1 JH1 catalytic domain, human; KINOMEscan binding; 1000 nM; baseline: control): 100%
c1ccc2c(Nc3cc(C4CCC4)[nH]n3)nc(Nc3ccc4nc[nH]c4c3)nc2c1  remaining activity (AMPK human; enzyme activity; 250 nM): 1%
Cn1c(=O)[nH]c(=O)c2c1nc(CN1CCN(c3cccc(Cl)c3)CC1)n2Cc1cccc(Cl)c1  IP1 accumulation increase (PLC-gamma2 human; HEK293-A overexpressing PLC-gamma2; 50 µM, 2 h): 10%
